{"data": "Experimental data pooled from the literature", "note": "Compare with care: the assays were run in different laboratories. Several values in a cell are separate wells, animals, samples, runs or records.", "chain of UniProt Q16539 (whole entry, looked up)": "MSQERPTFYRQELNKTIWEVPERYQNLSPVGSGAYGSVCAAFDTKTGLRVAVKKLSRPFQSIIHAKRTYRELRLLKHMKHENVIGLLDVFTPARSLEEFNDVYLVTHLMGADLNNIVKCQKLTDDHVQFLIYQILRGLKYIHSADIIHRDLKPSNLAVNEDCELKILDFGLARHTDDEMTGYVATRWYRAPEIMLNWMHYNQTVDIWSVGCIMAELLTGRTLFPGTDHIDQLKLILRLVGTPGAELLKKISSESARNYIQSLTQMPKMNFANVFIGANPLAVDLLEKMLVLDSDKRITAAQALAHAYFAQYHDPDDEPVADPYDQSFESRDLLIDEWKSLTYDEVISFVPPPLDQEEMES", "chain of UniProt Q9HB29 (whole entry, looked up)": "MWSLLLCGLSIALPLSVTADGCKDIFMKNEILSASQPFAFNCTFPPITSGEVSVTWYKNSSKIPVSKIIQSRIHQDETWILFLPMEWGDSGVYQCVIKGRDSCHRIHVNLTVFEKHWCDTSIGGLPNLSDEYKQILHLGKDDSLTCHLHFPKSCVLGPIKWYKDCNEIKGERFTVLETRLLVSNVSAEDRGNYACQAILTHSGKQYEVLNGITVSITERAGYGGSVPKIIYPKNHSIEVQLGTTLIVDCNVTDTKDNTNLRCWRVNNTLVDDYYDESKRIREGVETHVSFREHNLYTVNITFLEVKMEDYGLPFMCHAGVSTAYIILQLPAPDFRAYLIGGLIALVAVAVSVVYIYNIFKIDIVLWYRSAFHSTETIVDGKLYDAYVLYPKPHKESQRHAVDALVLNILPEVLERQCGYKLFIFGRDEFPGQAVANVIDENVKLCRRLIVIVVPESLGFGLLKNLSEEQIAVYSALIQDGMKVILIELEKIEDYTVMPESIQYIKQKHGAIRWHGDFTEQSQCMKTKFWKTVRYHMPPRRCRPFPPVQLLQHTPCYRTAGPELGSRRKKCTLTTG", "chain of UniProt P06873 (whole entry, looked up)": "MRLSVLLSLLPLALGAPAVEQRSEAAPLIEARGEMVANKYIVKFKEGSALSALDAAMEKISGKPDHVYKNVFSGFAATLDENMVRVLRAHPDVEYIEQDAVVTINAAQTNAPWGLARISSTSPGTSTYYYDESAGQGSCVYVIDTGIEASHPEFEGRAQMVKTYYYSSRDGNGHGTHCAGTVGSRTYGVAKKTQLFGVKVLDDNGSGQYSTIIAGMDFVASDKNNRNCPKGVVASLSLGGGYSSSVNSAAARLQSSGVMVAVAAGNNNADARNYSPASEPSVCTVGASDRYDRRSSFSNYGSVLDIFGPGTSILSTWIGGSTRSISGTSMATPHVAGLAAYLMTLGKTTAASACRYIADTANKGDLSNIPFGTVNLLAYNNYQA", "chain of UniProt Q9UKV0 (whole entry, looked up)": "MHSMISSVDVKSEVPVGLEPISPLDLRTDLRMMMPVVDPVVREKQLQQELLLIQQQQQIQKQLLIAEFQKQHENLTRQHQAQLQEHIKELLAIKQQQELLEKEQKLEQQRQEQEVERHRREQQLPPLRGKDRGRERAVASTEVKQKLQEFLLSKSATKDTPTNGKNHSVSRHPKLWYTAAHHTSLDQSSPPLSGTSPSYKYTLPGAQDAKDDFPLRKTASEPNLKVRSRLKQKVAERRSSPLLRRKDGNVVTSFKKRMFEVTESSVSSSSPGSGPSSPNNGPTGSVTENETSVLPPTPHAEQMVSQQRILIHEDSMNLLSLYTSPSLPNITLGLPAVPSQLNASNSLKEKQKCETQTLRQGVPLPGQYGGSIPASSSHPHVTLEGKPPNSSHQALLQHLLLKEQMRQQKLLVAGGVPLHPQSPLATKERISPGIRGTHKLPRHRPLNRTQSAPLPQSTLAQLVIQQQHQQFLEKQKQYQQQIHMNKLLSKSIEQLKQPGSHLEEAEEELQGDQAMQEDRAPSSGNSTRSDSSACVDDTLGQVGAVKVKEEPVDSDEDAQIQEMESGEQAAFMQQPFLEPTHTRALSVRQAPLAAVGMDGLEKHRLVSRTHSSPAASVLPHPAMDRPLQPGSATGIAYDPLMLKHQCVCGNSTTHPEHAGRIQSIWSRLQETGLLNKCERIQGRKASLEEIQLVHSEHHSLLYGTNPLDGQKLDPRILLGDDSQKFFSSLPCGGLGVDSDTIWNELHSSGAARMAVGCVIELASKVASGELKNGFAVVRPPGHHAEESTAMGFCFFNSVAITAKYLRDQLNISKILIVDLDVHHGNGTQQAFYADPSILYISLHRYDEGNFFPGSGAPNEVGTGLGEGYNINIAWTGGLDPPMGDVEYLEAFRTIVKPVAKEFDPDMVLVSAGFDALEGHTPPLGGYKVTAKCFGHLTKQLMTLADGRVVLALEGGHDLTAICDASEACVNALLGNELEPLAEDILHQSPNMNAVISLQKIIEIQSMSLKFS", "chain of UniProt Q96KB5 (whole entry, looked up)": "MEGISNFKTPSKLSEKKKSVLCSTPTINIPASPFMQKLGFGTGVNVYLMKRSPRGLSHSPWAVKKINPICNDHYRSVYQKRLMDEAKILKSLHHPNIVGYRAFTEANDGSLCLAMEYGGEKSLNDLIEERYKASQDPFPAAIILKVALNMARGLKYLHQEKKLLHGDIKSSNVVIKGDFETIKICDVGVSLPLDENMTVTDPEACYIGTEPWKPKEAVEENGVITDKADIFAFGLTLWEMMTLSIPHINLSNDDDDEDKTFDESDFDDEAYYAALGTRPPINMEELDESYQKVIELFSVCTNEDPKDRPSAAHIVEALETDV", "chain of UniProt P54292 (whole entry, looked up)": "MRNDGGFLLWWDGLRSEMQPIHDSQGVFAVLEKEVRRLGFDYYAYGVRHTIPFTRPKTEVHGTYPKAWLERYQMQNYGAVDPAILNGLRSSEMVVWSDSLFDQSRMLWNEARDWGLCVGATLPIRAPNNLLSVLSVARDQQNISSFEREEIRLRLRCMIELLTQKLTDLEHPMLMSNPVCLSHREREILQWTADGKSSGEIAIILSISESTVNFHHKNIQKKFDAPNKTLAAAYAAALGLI", "chain of UniProt P14778 (whole entry, looked up)": "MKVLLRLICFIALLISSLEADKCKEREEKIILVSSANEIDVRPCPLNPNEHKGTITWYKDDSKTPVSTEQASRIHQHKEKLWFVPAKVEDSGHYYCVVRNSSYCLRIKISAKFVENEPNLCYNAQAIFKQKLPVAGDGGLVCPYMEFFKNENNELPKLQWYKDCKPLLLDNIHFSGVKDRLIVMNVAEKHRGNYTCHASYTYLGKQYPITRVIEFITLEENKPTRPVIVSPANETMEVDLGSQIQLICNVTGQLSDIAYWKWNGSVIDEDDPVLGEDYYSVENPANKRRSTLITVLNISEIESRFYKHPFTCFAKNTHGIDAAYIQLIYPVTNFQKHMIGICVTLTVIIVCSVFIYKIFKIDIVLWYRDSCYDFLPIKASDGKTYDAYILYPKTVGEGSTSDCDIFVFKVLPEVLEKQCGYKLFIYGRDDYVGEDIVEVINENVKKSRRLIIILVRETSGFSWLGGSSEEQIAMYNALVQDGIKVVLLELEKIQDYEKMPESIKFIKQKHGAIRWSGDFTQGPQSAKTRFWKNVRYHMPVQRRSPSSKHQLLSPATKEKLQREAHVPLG", "chain of UniProt P45983 (whole entry, looked up)": "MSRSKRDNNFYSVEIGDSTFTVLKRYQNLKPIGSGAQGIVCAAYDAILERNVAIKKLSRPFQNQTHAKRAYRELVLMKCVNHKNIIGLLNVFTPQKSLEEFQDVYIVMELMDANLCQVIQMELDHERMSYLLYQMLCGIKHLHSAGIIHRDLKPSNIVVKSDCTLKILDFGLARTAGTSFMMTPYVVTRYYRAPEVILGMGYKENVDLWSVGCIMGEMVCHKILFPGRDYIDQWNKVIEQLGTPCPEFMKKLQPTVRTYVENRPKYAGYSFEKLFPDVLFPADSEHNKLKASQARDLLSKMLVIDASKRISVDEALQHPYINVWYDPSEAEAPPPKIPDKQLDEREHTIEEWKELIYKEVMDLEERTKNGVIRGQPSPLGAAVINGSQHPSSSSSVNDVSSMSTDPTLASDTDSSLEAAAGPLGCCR", "chain of UniProt P47809 (whole entry, looked up)": "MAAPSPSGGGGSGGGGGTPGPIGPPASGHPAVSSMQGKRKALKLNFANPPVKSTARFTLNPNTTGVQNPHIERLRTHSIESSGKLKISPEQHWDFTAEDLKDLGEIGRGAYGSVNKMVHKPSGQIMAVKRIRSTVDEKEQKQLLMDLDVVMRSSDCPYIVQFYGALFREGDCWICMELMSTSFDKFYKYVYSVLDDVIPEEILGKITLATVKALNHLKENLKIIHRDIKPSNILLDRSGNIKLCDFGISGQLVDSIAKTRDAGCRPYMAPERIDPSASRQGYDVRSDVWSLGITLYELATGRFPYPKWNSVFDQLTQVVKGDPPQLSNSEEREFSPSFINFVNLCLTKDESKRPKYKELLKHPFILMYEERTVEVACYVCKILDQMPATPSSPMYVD", "chain of UniProt P43235 (whole entry, looked up)": "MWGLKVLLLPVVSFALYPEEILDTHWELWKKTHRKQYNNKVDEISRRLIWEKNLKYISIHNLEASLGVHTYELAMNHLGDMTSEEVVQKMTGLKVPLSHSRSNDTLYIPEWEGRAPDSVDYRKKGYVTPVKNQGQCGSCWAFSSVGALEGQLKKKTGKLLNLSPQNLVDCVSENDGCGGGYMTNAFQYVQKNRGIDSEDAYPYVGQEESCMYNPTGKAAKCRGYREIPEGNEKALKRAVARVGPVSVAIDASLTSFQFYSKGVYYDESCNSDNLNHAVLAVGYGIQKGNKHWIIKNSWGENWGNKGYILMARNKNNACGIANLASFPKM"}
{"Compound": "CC(C)Cc1ccc(CN2CCCC(NC(=O)c3nn(C)c(=O)c4ccccc34)C2)cc1 (stereo not drawn)", "target or system": "Trypanosoma cruzi", "test": "reporter mRNA translation, inhibitor, measured: Renilla luciferase mRNA", "test system": "cell-free extract", "conditions": "concentration not given, test 1", "scale": "reference: positive over negative control", "measurement": "translation activity", "result": "103% and 113%"}
{"Compound": "Nc1ncc(-c2cc(-c3cnn(CC(F)(F)F)c3)ncc2F)nc1C(=O)NC1CNCC(F)C1 (stereo not drawn)", "target or system": "PBK (Homo sapiens, UniProt Q96KB5)", "test": "enzyme activity", "conditions": "1 µM", "scale": "reference: DMSO control", "measurement": "remaining activity", "result": "105%"}
{"Compound": "COC(=O)[C@]1(C(C)C)C=C(C(=O)Nc2cccc(C(=O)Nc3ccc(Nc4nccc(-c5cccnc5)n4)c(C)c3)c2)C(=O)CC1", "target or system": "MAPK8 (Homo sapiens, UniProt P45983)", "test": "kinase activity, inhibitor", "conditions": "14.81 µM, unit not given, added: 10 mM glutathione", "scale": "reference: no inhibitor", "measurement": "remaining activity", "result": 0.181}
{"Compound": "O=C=[N][Ru-4]123([n]4c5ccc(O)cc5c5c6c(c7cc(F)c[n+]1c7c54)C(=O)NC6=O)[S+]1CC[S+]2CC[S+]3CC1 (stereo not drawn)", "target or system": "CK1 (yeast)", "test": "kinase activity, inhibitor", "conditions": "100 nM, added: 10 µM ATP", "measurement": "remaining activity", "result": "14%"}
{"Compound": "COC(=O)c1ccc2c(c1)nc(NC(=O)c1ccccc1)n2CCCc1ccccc1", "target or system": "HDAC9 (Homo sapiens, UniProt Q9UKV0)", "test": "enzyme activity, inhibitor", "conditions": "10 µM", "measurement": "remaining activity", "result": "93%"}
{"Compound": "C[C@](C(=O)NC1CCOCC1)(c1cncnc1)N(C(=O)[C@H](F)Cl)c1ccc(OC(F)(F)Cl)cc1", "target or system": "Proteinase K (PROK, Engyodontium album, UniProt P06873)", "test": "enzyme activity, inhibitor", "conditions": "10 µM", "measurement": "remaining activity", "result": "101%"}
{"Compound": "CN(Cc1cc(C2CC2)on1)C(=O)c1cccc(-c2ccc3c(c2)CCO3)c1", "target or system": "Acetyl-CoA synthetase (Cryptococcus neoformans, UniProt J9VFT1)", "test": "enzyme activity, inhibitor, coupled pyrophosphate", "conditions": "3.91 µM", "measurement": "remaining activity", "result": "75.5% and 70.5%"}
{"Compound": "COC(=O)[C@@]1(C)C=C(C(=O)Nc2cccc(C(=O)Nc3ccc(Nc4nccc(-c5cccnc5)n4)c(C)c3)c2)C(=O)CC1", "target or system": "MAPK14 (Homo sapiens, UniProt Q16539)", "test": "enzyme activity, inhibitor", "conditions": "4.938 µM, unit not given", "scale": "reference: vehicle", "measurement": "remaining activity", "result": "1.01 and 0.775 and 0.865"}
{"Compound": "CC(C)[C@@H]1NC(=O)[C@H](Cc2ccccc2)NC(=O)CSC[C@@H](C(N)=O)NC(=O)[C@H](CCC(=O)O)NC(=O)[C@H](CO)NC(=O)[C@H](Cc2c[nH]c3cccc(Cl)c23)NC(=O)[C@H](C2CCCCC2)NC(=O)[C@H](C(C)C)NC(=O)[C@H](Cc2ccc(O)cc2)NC(=O)[C@H](CC(=O)O)NC(=O)[C@H](Cc2c[nH]c3ccccc23)NC(=O)[C@H](Cc2ccc(N)nc2)NC(=O)[C@H](Cc2c[nH]c3ccc(Cl)cc23)NC(=O)[C@H](CCC(=O)O)NC1=O", "target or system": "Interleukin-1 receptor-like 2 (IL1RL2, Homo sapiens, UniProt Q9HB29)", "test": "reporter gene (SEAP), inhibitor, HEK-Blue IL-36R reporter", "test system": "HEK-Blue IL-36R cells", "conditions": "0.046 µM, 6 h, added: IL-36γ 1 ng/mL", "measurement": "remaining activity", "result": "109%"}
{"Compound": "CCCn1ncc(CN2CCCC(C(=O)c3cccc(OC(C)C)c3)C2)c1C (stereo not drawn)", "target or system": "Trypanosoma cruzi", "test": "reporter mRNA translation, inhibitor, measured: Renilla luciferase mRNA", "test system": "cell-free extract", "conditions": "concentration not given, test 3", "scale": "reference: positive over negative control", "measurement": "translation activity", "result": "102%"}
{"Compound": "COc1ccc(NC(=O)Nc2ccc3c(c2)C(=O)N(C(C)CO)CC(C)C(CN(C)Cc2ccc4c(c2)OCO4)O3)cc1 (stereo not drawn)", "target or system": "Map2k4 (Mus musculus, UniProt P47809)", "test": "kinase activity, KinaseProfiler", "conditions": "0.03 µM, species mouse", "scale": "reference: control", "measurement": "remaining activity", "result": "97%"}
{"Compound": "COc1ccccc1-c1ccncc1C(=O)Nc1nnc(OCc2ccc(Cl)cc2)s1", "target or system": "DNA polymerase theta, helicase domain (POLQ, Homo sapiens, UniProt O75417)", "test": "ATPase activity, ADP-Glo", "conditions": "0.48 µM, added: ATP 600 µM", "measurement": "remaining activity", "result": "29%"}
{"Compound": "CCCC(=O)C#Cc1ccc(F)c(F)c1", "target or system": "rhlR (Pseudomonas aeruginosa, UniProt P54292)", "test": "reporter gene, inhibitor, quorum sensing reporter strain", "conditions": "10 µM, 1.5 h", "scale": "reference: DMSO", "measurement": "remaining activity", "result": "75%"}
{"Compound": "COC(=O)CN1CCCc2cc3cc(C(=O)NC(Cc4ccc(C)cc4)C(=O)NCC=CS(=O)(=O)c4ccccc4)c(=O)oc3cc21 (stereo not drawn)", "target or system": "Cathepsin K (CTSK, Homo sapiens, UniProt P43235)", "test": "enzyme activity, inhibitor, fluorescence", "conditions": "5 µM", "measurement": "remaining activity", "result": "22%"}
{"Compound": "N#Cc1cnc2sc(C(=O)O)cc2c1N1CCc2[nH]nc(C(=O)N[C@@H](CC(=O)NCCOCCN3CCOCC3)c3cccc(Br)c3)c2C1", "target or system": "IL1R1 (Homo sapiens, UniProt P14778)", "test": "IL-8 release, antagonist", "test system": "A-431", "conditions": "32 µM, 18 h, added: IL-1β 5 ng/mL", "scale": "reference: untreated", "measurement": "remaining activity", "result": "83%"}
{"note": "Some of these lines once more:"}
{"Compound": "COC(=O)c1ccc2c(c1)nc(NC(=O)c1ccccc1)n2CCCc1ccccc1", "target or system": "HDAC9 (Homo sapiens, UniProt Q9UKV0)", "test": "enzyme activity, inhibitor", "conditions": "10 µM", "measurement": "remaining activity", "result": "93%"}
